Assay results of several laboratories.
Lines come from different studies, so protocols differ. ± marks the error that the study gave.

`CCCCCCCCCCCCCCC(=O)O.O=C1CCCC2C3CCCN4CCCC(CN12)C34` (stereo not drawn): “log octanol-water partition coefficient” -1.17 (shake-flask; simulated gastric fluid; pH 1.2, 25 °C).
`O=P1(NCCCl)NCCCO1` (stereo not drawn) has an MRT(0-t) of 4.9 ± 0.498 h (rat, plasma; intravenous, 10 mg/kg CP, with: ketoconazole 10 mg/kg oral 50 min before).
For `O=C(NCCCCCn1ccc2ccc(F)cc21)Oc1cccc(F)c1`, the parent remaining was > 95% (PBS with Triton X-100; 20 µM, 60 min, pH 7.4).
`CC(=O)NC1C(OC2OC(CC(O)C3OC(n4ccc(=O)[nH]c4=O)C(O)C3O)C(O)C(O)C2NC(=O)COCc2ccc(N3CCC(Oc4ccc(OC(F)(F)F)cc4)CC3)cc2)OC(CO)C(O)C1O` (stereo not drawn) gave a water solubility of 35 mg/mL (HCl salt).
The percent metabolized of `CC(C)(O)c1ccccc1CC[C@H](c1cccc(/C=C/c2ccc3ccc(Cl)cc3n2)c1)S(=O)(=O)CC1(CC(=O)O)CC1` is reported as 72.1% (human liver microsomes; 1 µM, 30 min, 0.5 mg/mL protein).
`CC[C@H](C)[C@@H]1NC(=O)[C@H](CCCCN)NC(=O)[C@H](CCCCN)NC(=O)[C@H](Cc2ccc(O)cc2)NC(=O)[C@H](CC(C)C)NC(=O)[C@@H]2CCCN2C(=O)CNC(=O)CNC(=O)[C@@H](NC(=O)CN)CSSC[C@@H](C(=O)N[C@@H](CCCCN)C(=O)N[C@@H](CO)C(N)=O)NC(=O)[C@H](CC(C)C)NC(=O)[C@H](CCCCN)NC(=O)[C@H](CCCCN)NC(=O)[C@H]([C@@H](C)CC)NC(=O)[C@H]([C@@H](C)CC)NC(=O)[C@H](CCCCN)NC(=O)[C@H](CCCCN)NC(=O)[C@H](Cc2ccc(O)cc2)NC(=O)[C@H](CC(C)C)NC(=O)[C@@H]2CCCN2C(=O)[C@H](C)NC(=O)CNC(=O)CNC(=O)[C@H](CO)NC(=O)CNC(=O)CNC(=O)[C@H](CO)NC(=O)[C@H](CCCCN)NC(=O)[C@H](CC(C)C)NC(=O)[C@H](CC(C)C)NC(=O)[C@H](CCCCN)NC(=O)[C@H](CCCCN)NC(=O)[C@H]([C@@H](C)CC)NC1=O`: “remaining intact peptide” 0% (25% human serum; 50 µM, 24 h; baseline: 0 h control).
`COc1ccc([N+]#[C][Re]2(=[C]=O)(=[C]=O)(=[C]=O)[N]3C(C)=CC=c4ccc5c(c43)[N]2C(C)=CC=5)cc1.O=S(=O)([O-])C(F)(F)F` gave a luminescence lifetime of 4 µs (PBS; pH 7.4, nitrogen-saturated).
For `CC(C)C[C@H](NC(=O)[C@H](CCCCN)NC(=O)[C@H](CCC(=O)O)NC(=O)[C@H](C)NC(=O)[C@@H](NC(=O)[C@H](CCCCN)NC(=O)[C@H](CC(=O)O)NC(=O)[C@H](Cc1ccc(O)cc1)NC(=O)[C@H](Cc1ccccc1)NC(=O)[C@H](C)NC(=O)[C@H](CCCCN)NC(=O)[C@H](CC(C)C)NC(=O)[C@H](Cc1c[nH]c2ccccc12)NC(=O)[C@@H](N)CC(=O)O)C(C)C)C(=O)N[C@@H](CCCCN)C(=O)N[C@@H](CCC(=O)O)C(=O)N[C@@H](C)C(=O)N[C@@H](Cc1ccccc1)C(=O)N1CCC[C@H]1C(=O)N[C@@H](CC(=O)O)C(=O)N[C@@H](Cc1c[nH]c2ccccc12)C(=O)N[C@@H](C)C(=O)N[C@@H](CCCCN)C(=O)N[C@@H](C)C(=O)N[C@@H](C)C(=O)N[C@@H](Cc1ccc(O)cc1)C(=O)N[C@@H](CC(=O)O)C(=O)N[C@@H](CCCCN)C(=O)N[C@@H](C)C(=O)N[C@@H](C)C(=O)N[C@@H](CCC(=O)O)C(=O)N[C@@H](CCCCN)C(=O)N[C@@H](C)C(=O)N[C@@H](CCCCN)C(=O)N[C@@H](CCC(=O)O)C(=O)N[C@@H](C)C(=O)N[C@@H](C)C(=O)O`, the half-life was 4.7 h (cynomolgus monkey male, plasma; intravenous infusion, 25 mg/kg every other day, day 27).
`CC[C@H](C)C(=O)N1CCC(NC(=O)Nc2ccc(OC(F)(F)F)c(F)c2)CC1` — result for “subjects with any AE”: 66.7% (healthy volunteers; oral, 2 mg single dose, 14 (unit not given)).
For `CN(C)C(CNC(=O)Nc1cc(C(F)(F)F)ccc1N1CCOCC1)c1ccncc1` (stereo not drawn), “serum indirect bilirubin” read 0.2 mg/dL (mouse, serum; intraperitoneal, 240 mg/kg single dose).
For `CCN(CC)c1ccc2c(-c3ccccc3C(=O)OCCOCC[18F])c3ccc(=[N+](CC)CC)cc-3oc2c1`, the radioactivity concentration was 69 ± 5 kBq/cm³ (microPET; rat, heart; dose not given, 5 min post injection).
The tissue concentration of `COC(=O)C[C@](O)(CCCC(C)(C)OC(C)=O)C(=O)O[C@@H]1C(OC)=C[C@]23CCCN2CCc2cc4c(cc2[C@H]13)OCO4` is reported as 286 ng/mL (CD1 mouse, heart; subcutaneous, 1 mg/kg, 0.5 h).
`CC[C@H](C)CCCCC(=O)N[C@@H](CCN)C(=O)N[C@H](C(=O)N[C@@H](CCN)C(=O)N[C@H]1CCNC(=O)[C@H]([C@@H](C)O)NC(=O)[C@H](CCN)NC(=O)[C@H](CCN)NC(=O)[C@H](CC(C)C)NC(=O)[C@@H](Cc2ccccc2)NC(=O)[C@H](CCN)NC1=O)[C@@H](C)O` has a zeta potential of 10.4 mV (pH 6.0).
With `COc1cc(NC(=O)C(=O)c2c(C)n(Cc3ccc(Cl)cc3)c3ccc(C)cc23)ccn1` the C0 was 2470 ng/mL (female cynomolgus monkey, plasma; intravenous, 1 mg/kg).
`CC[C@H](C)[C@H](NC(=O)[C@H](CC(=O)O)NC(=O)[C@H](CO)NC(=O)[C@H](CCC(N)=O)NC(=O)[C@H](C)NC(=O)[C@H](CC(=O)O)NC(=O)[C@H](CCC(=O)O)NC(=O)[C@H](Cc1c[nH]cn1)NC(=O)[C@H](Cc1ccc(O)cc1)NC(=O)[C@H](C)NC(=O)[C@H](CC(=O)O)NC(=O)[C@H](CCC(=O)O)NC(=O)[C@H](Cc1c[nH]cn1)NC(=O)[C@H](Cc1ccc(O)cc1)NC(=O)[C@H](C)NC(=O)[C@H](CC(=O)O)NC(=O)[C@H](CCC(=O)O)NC(=O)[C@H](Cc1c[nH]cn1)NC(=O)[C@H](Cc1ccc(O)cc1)NC(=O)[C@H](C)NC(=O)[C@H](CC(=O)O)NC(=O)[C@H](CCC(=O)O)NC(=O)[C@H](Cc1c[nH]cn1)NC(=O)[C@H](Cc1ccc(O)cc1)NC(=O)[C@H](C)NC(=O)[C@H](CC(=O)O)NC(=O)[C@H](CCC(=O)O)NC(=O)[C@H](Cc1c[nH]cn1)NC(=O)[C@@H](N)Cc1ccc(O)cc1)C(=O)N[C@H](C(=O)N[C@@H](C)C(=O)N[C@@H](Cc1c[nH]cn1)C(=O)N[C@@H](CC(C)C)C(=O)N[C@@H](CC(C)C)C(=O)O)C(C)C`: “NE share of white cells” 17.7 ± 3.4% (mouse SN model, blood; dose not given).
`CN[C@](C)(C[18F])C(=O)O` gave a tissue uptake of 0.5 ± 0.1 %ID/g (SCID mouse U87 xenograft, brain; 15 min, post injection).
For `CCN(Cc1ccccc1)C(=O)CCc1nc(CN2CCN(C(=O)Cc3ccc(OC)c(OC)c3)CC2)no1`, the concentration was < 90 ng/g (rat, liver; intravenous, 1 mg/kg, 2 h, single dose).
`c1ccc(C2(CCNC3CCC4(SCCS4)c4ccccc43)CCOC3(CCCC3)C2)nc1` (stereo not drawn) gave a concentration of 1060 ng/mL (rats, plasma; intravenous, dose not given, 0.25 h).
Under “maximum heart rate”, `CC[C@H](C)[C@H](NC(=O)[C@H](Cc1ccccc1)NC(=O)[C@@H]1CCCN1C(=O)[C@H](CCCCN)NC(=O)[C@H](CCCCN)NC(=O)[C@H](Cc1ccccc1)NC(=O)[C@H](Cc1ccccc1)NC(=O)[C@@H](C)NC(=O)[C@@H](N)Cc1ccc(O)cc1)C(=O)N[C@@H](CC(C)C)C(=O)O` is recorded as 435 ± 31 beats/min (anesthetized rat; intrathecal, 10 nmol/rat, 1 to 5 min).
With `NC(=O)[C@@H](Cc1ccccc1)N[11C](=O)OCc1ccccc1` the maximum uptake was 1 SUV (dynamic PET imaging; male Wistar rats, spinal cord; intravenous, 10 min).
With `CC(C)[C@@H]1NC(=O)[C@H](Cc2ccccc2)NC(=O)[C@H](Cc2ccc(O)cc2)NC(=O)CCSSC[C@@H](C(=O)N2CCC[C@H]2C(=O)N[C@H](CCCNC(=N)N)C(=O)NCC(N)=O)NC(=O)[C@H](CCC(N)=O)NC1=O` the AST was 39.2 ± 6.7 IU/L (Wistar rat, blood; intravenous, 1 µg/kg single dose, 72 h).

Some of these lines once more:
`c1ccc(C2(CCNC3CCC4(SCCS4)c4ccccc43)CCOC3(CCCC3)C2)nc1` (stereo not drawn) gave a concentration of 1060 ng/mL (rats, plasma; intravenous, dose not given, 0.25 h).
For `O=C(NCCCCCn1ccc2ccc(F)cc21)Oc1cccc(F)c1`, the parent remaining was > 95% (PBS with Triton X-100; 20 µM, 60 min, pH 7.4).
`COc1ccc([N+]#[C][Re]2(=[C]=O)(=[C]=O)(=[C]=O)[N]3C(C)=CC=c4ccc5c(c43)[N]2C(C)=CC=5)cc1.O=S(=O)([O-])C(F)(F)F` gave a luminescence lifetime of 4 µs (PBS; pH 7.4, nitrogen-saturated).
